Assay results from different studies.
Each numbered part is a random draw from the data of one study; scales do not carry over between parts. Positions count from the first letter of the parent shown.

Set 1
Target: CCNE1, cyclin fold, Cln2 fusion (human)
Method: yeast growth competition, sequencing
Matrix: yeast
Setting: weak parent motif
Relative to: not given
Direction: higher = stronger binding
Measurement: normalised enrichment score
Parent: PKN2 docking peptide (human); VSAVQKLDFSDTM
Substitution = K6R; value = 0.804
Substitution = D8V; value = 0.745
Substitution = L7Q; value = -0.337
Substitution = V4D; value = 0.315
Substitution = D11Y; value = 0.15
Substitution = V4F; value = 0.431
Substitution = D8M; value = 1.26
Substitution = L7M; value = -0.211
Substitution = M13D; value = 1.21
Substitution = V1W; value = 0.593
Substitution = S10E; value = 1.44
Substitution = D11Q; value = -0.103
Substitution = K6T; value = 0.881
Substitution = T12W; value = 2.13

Set 2
Target: ABI1, truncated, D143A, DHFR fusion (Arabidopsis thaliana)
Method: DHFR PCA, deep sequencing
Matrix: yeast
Setting: methotrexate growth selection, single substitutions
With: (+)-ABA 200 µM
Relative to: wild-type fitted maximum
Direction: higher = stronger binding
Measurement: relative binding score
Parent: PYL1, truncated, DHFR fusion (Arabidopsis thaliana); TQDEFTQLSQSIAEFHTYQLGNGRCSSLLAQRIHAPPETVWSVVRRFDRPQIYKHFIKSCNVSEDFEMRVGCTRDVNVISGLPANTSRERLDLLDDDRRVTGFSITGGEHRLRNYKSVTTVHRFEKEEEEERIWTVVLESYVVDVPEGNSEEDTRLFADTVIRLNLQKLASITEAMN
Substitution = M176L; value = 96.5%
Substitution = R90Q; value = 96.1%
Substitution = R163D; value = 44.8%
Substitution = G81F; value = 21.9%
Substitution = S26N; value = 91.2%
Substitution = S87K; value = 20%
Substitution = N114V; value = -16%
Substitution = D144K; value = 64.1%
Substitution = T119V; value = 83.1%
Substitution = V40W; value = -16.1%
Substitution = I52P; value = 44%

Set 3
Target: RNA binding protein fox-1 homolog 2, RRM domain, GST-SBP tag (RBFOX2, Homo sapiens, UniProt O43251-10, residues 100-194)
Method: RNA Bind-n-Seq
Molecule type: RNA
Matrix: in vitro
Concentration: 365 nM
Setting: natural RNA segment, single round, ends assumed
Relative to: no-protein control
Direction: higher = stronger binding
Measurement: RBNS enrichment (R)
Shared flanks, not repeated: GGGAGUUCUACAGUCCGACGAUC … UGGAAUUCUCGGGUGCCAA
Residues (chain): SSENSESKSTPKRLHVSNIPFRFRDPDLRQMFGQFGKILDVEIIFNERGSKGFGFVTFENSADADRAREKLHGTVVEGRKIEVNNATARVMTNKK
Sequence = AAAAGGCCUCCUCCAGCGGGGCAGGCUGCUCAGUGUGGGUGGCAAGUUGUAGCCCAGCUGGAGGACAGGCCUUUGCUCCCUGGGCAGGUGCCCACUGGUGUCCCAUGGAA; value = 0.234
Sequence = GUGUUCCUUCCUGCAGGCCUUGGAGCCCUGACCAGGCCAGUCCUGGGCACUGCUUAGAUGGCUGUUAGCUUAGAACUGGUGAAGUAAAGAUUUGGUCCCAGAAACCAGCC; value = 0.225
Sequence = GUGUGAAGCUACCCUCAGGCUAUGUAGAUCAGAUGUAUAAAAAGCACAAAUGAAUAUCUCAAUUACAUUUGGGUUCCAUUCUCAAGAUAUUUUAUUAUGUAUAUUCAAUU; value = 0.459
Sequence = CCGGAGUGCUGGCUCUCACAGUGAAUUUUGAUGCAUUUAAAAUAAGAUUCUGAUGCCAGACUGUUAAAACAGGCGCUGGUUCUGAAGCACCGAUGGAAACAGAUUGAUGC; value = 1.04
Sequence = GUGCAGGCAGCUUGGAGUGCAGGCUGUGUUGCUGGGAGUGCGCUGGCUGCUUAGAAACCACGAGACACCACCUCACUUUCCUCUGGCCUCACUGUUUCUGCCAGUCACAU; value = 0.329
Sequence = AAGCCCCUGGAAAUGCGUGUGACCUGUGAAGUGGUGUAUUGUCACAGUAGCUUAUUUGAACUUGAGACCAUUGUAAGCAUGACCCAACCUACCACCCUGUUUUUACAUAU; value = 5.01
Sequence = AGAUCCCAGAGGGAUAGAGGAGACAGUGAUCUGGGCUCUGUUUAGGAAUGGACUUUCCCCUAGGUAUCCAGGGAACCCAUUUUAGAAUUCGGGGGACCUGGCUUUGAGCU; value = 0.979
Sequence = UCUUGCCAGAGCUGAGCUGAGCAGCUCGUGUUCCAGCGCCAGUGGGGCCGAGGUUUGCUGUGGUUCUUGUUUCAGACUGGCGUGCUGAGUGCUGGAAGCUGUUUGCACCU; value = 0.602
Sequence = UAUGAAUUUUCAAUGCAGCAAAGCUGACUUUCUUUCGUACUCCCAAUAAAUGACUCUUAACAGUAAAUACUGAGUGAAGCCUCUUCUUUACUUACUCCCGGUAAACUGAA; value = 0.722
Sequence = AUCAUUAUUGGGUCUCUGCCUUAAAACACAUCCAAAUUUAUAUUAGAAAAAAAAAAAAACUGUAUCUUUUUCUUUGGUCACUAAGAUCCCCUGACCAUGUCUUUAUGGCC; value = 0.852
Sequence = AGGGAAACCUUGAAUUGGGGUGUGUUCUCUAAUCACUUUCCACUGUCUGAGCUUUCCUGACCCCUGUAUUGUAUCCUUGCUCCCAGGGCUCCCUUCAUGGCUUGUGAACU; value = 0.546
Sequence = AUAAAAGAAUAUCAUCUUAAAAAACUGUUCUGGCAACUAUCUGCUACCAGAAGGUUAGAUUGAGAAAGCAGAUCCAAUAUAUGCAAGACAUUUCUUCAAACUCCAAACUA; value = 0.27

Set 4
Target: Histone acetyltransferase KAT6A, winged helix 1, GST fusion (KAT6A, Homo sapiens, UniProt Q92794, residues 1-85)
Method: protein binding microarray
Molecule type: double-stranded DNA, one strand shown
Matrix: in vitro
Concentration: not given
Setting: 8-mer, flanks averaged, mean of 2 arrays, mostly near background
Relative to: not given
Direction: higher = stronger binding
Measurement: E-score
Construct (chain): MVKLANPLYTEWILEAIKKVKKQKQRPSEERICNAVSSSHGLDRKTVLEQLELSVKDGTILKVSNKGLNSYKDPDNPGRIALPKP
Sequence = ATGTTAAG; value = -0.127
Sequence = AAGTCTAG; value = -0.0265
Sequence = CCGTGAGG; value = 0.191
Sequence = AGATACTA; value = 0.0562
Sequence = GGTGGCAA; value = -0.246
Sequence = CCCTGCTA; value = -0.105
Sequence = CACCTGGC; value = -0.147
Sequence = CGTTCTAC; value = 0.0774
Sequence = AAAATAGT; value = -0.13
Sequence = ATACGATC; value = -0.0854
Sequence = CAATAGAC; value = -0.111
Sequence = GATAACAA; value = -0.137
Sequence = CAGCCTCA; value = -0.189
Sequence = GACACCGC; value = 0.261
Sequence = ATAACATC; value = -0.0505
Sequence = CCATAAGG; value = -0.246
Sequence = ACTGAGGG; value = -0.157

Set 5
Target: UBE2J2 UBC core domain (UniProt Q8N2K1)
Method: yeast two-hybrid
Matrix: yeast
Setting: mostly zero background
Relative to: not given
Direction: higher = stronger interaction
Measurement: lacZ reporter activity
B1: PHF21A RING domain (UniProt Q96BD5); chain SPTSTDGDIHEDFCSVCRKSGQLLMCDTCSRVYHLDCLDPPLKTIPKGMWICPRCQDQMLKKEEAIPW
B2: TRIM63 RING domain (UniProt Q969Q1); chain PMENLEKQLICPICLEMFTKPVVILPCQHNLCRKCANDIFQAANPYWTSRGSSVSMSGGRFRCPTCRHEVIMDRHGV
B3: CUL9 RING domain (UniProt Q8IWT3); chain AQAVPVRPDHCPVCVSPLGCDDDLPSLCCMHYCCKSCWNEYLTTRIEQNLVLNCTCPIADCPAQPTGAFIR
Residues (chain): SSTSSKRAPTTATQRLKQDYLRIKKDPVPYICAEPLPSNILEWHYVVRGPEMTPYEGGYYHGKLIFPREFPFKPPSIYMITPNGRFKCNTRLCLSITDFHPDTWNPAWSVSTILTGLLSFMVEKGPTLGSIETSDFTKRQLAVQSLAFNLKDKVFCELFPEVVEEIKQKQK
Molecule = QHHELTSLFECPVCFDYVLPPILQCQAGHLVCNQCRQKLSCCPTCRGALTPSIRNL (SIAH2 RING domain (UniProt O43255)); value = 0
Molecule = QLRRLQEERTCKVCMDKEVSIVFIPCGHLVVCKDCAPSLRKCPICRSTIKGTVRTF (BIRC3 RING domain (UniProt Q13489)); value = 12300
Molecule = B1 (PHF21A RING domain); value = 0
Molecule = B2 (TRIM63 RING domain); value = 3110
Molecule = B3 (CUL9 RING domain); value = 0

Set 6
Target: Sal-like protein 4, full length isoform A (SALL4, Homo sapiens, UniProt Q9UJQ4, residues 1-1053)
UniProt Q9UJQ4, sequence (whole entry, looked up): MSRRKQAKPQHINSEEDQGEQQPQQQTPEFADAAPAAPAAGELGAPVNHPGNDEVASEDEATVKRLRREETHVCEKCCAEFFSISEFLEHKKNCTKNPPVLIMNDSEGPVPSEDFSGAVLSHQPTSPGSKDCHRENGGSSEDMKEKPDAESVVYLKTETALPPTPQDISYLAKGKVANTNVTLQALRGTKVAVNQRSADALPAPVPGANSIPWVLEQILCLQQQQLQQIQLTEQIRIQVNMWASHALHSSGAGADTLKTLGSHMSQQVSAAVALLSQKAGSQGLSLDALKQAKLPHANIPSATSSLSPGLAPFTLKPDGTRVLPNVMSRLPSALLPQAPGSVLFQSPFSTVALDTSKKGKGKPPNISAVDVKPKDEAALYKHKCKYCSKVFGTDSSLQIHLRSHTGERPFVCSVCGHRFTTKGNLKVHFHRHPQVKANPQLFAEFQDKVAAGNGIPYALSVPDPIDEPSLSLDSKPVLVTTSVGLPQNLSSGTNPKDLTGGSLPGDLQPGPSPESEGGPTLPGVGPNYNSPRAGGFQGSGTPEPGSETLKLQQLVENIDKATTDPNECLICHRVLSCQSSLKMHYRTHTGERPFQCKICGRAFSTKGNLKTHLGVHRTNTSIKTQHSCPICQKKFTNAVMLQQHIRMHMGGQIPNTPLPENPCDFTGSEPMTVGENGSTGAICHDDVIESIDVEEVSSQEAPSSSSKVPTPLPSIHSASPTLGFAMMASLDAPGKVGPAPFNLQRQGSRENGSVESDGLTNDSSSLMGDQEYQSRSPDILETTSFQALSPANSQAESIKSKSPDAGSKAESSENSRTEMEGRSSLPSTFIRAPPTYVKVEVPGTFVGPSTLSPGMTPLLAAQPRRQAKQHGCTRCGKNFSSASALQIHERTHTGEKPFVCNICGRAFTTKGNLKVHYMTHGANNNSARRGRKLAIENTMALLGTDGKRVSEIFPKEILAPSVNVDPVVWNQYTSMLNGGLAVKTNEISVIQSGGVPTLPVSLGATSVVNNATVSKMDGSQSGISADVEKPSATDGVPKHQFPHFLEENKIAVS
Method: universal PBM
Molecule type: double-stranded DNA, one strand shown
Matrix: in vitro
Concentration: 600 nM
Setting: 8-mer, flanks averaged, mean of replicates
Direction: higher = stronger binding
Measurement: E-score
Sequence = CCACACGC; value = -0.276
Sequence = CCTCTAGC; value = -0.149
Sequence = CGAATGAA; value = 0.0908
Sequence = AAGTTAGG; value = 0.0227
Sequence = ACCTCGAG; value = -0.0941
Sequence = ACAGCAGC; value = -0.126
Sequence = CCGCAGAG; value = -0.347
Sequence = CACGCCAA; value = -0.0998
Sequence = ATGTAGTA; value = 0.253
Sequence = CTTACAAG; value = 0.107
Sequence = GACGGTGC; value = -0.269

Excerpt of the above (set 6):
Sequence = CCGCAGAG; value = -0.347
Sequence = ACAGCAGC; value = -0.126
Sequence = CTTACAAG; value = 0.107
Sequence = ATGTAGTA; value = 0.253
Sequence = CCACACGC; value = -0.276
Sequence = CGAATGAA; value = 0.0908
Sequence = GACGGTGC; value = -0.269
Sequence = ACCTCGAG; value = -0.0941
Sequence = AAGTTAGG; value = 0.0227
Sequence = CACGCCAA; value = -0.0998
Sequence = CCTCTAGC; value = -0.149
